Assay results collected from several papers.
A part holds a random share of what one study measured.

Sample 1
Target: PABPC1L2, full length, GST fusion (mouse, UniProt A0ABA7IW68)
Method: RNAcompete
Form: RNA
Matrix: in vitro
Tested at: 20 nM
Notes: 7-mer, probes averaged, single round
Relative to: mean of 7-mers
Reading: higher = stronger binding
Residues (chain): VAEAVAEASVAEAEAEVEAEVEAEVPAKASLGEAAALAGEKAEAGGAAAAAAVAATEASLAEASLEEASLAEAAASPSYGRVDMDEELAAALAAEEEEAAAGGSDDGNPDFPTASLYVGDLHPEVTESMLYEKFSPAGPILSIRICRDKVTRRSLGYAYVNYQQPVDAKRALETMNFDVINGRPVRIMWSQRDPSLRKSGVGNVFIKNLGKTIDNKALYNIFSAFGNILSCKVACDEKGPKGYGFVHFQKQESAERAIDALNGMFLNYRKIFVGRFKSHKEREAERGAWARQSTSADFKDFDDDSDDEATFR
With `GCACACA` the 7-mer Z-score was -0.00108.
`CUCGCUG` gave a 7-mer Z-score of -0.418.
With `GUGGUCG` the 7-mer Z-score was -0.204.
For `UGGAUUU`, the 7-mer Z-score was -0.184.
With `AUCUCGA` the 7-mer Z-score was -0.168.
The 7-mer Z-score of `AAGGCUC` is reported as -0.103.
`CCUUGAG` has a 7-mer Z-score of -0.32.
For `CUGGGGU`, the 7-mer Z-score was -0.0772.

Sample 2
Target: TAR DNA-binding protein 43, full length, His tag (TARDBP, Homo sapiens, UniProt Q13148, residues 1-414)
Method: RNA Bind-n-Seq
Form: RNA
Matrix: in vitro
Tested at: 20 nM
Notes: 6-mer, flanks averaged, single round
Together with: 150 mM LiCl
Relative to: input library
Reading: higher = stronger binding
For `UUCCGU`, “6-mer enrichment (R)” read 0.927.
`UCGAAC`: “6-mer enrichment (R)” 0.811.
For `CGACAG`, “6-mer enrichment (R)” read 0.809.
Under “6-mer enrichment (R)”, `CCCAAG` is recorded as 0.937.
`ACACUA`: “6-mer enrichment (R)” 0.88.
Under “6-mer enrichment (R)”, `GAUAUA` is recorded as 0.902.
`CCUUCC`: “6-mer enrichment (R)” 0.975.
Under “6-mer enrichment (R)”, `CAUGAG` is recorded as 0.943.

Sample 3
Target: Transcription factor SOX-2, HMG box (SOX2, Homo sapiens, UniProt P48431, residues 37-118)
UniProt P48431, sequence (37-118, looked up): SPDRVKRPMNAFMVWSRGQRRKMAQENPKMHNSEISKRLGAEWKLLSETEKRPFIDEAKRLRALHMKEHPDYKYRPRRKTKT
Method: protein-binding microarray
Form: hairpin DNA
Matrix: in vitro
Tested at: not given
Notes: whole hairpin DNA, median over replicate spots
Relative to: not given
Reading: higher = stronger binding
Shared flanks, not repeated: GCAGGCC … GGCCTGCACACTCTTTCCCTACACGAC
For `CATAATGGGCCTCCTGGCCCATTATG`, the median fluorescence was 3060 a.u.
With `GACAATGGGCCTCCTGGCCCATTGTC (5mC at 33)` the median fluorescence was 3440 a.u.
`CACAACTGGCCTCCTGGCCAGTTGTG` has a median fluorescence of 2500 a.u.
`CACACTGGGCCTCCTGGCCCAGTGTG` has a median fluorescence of 2390 a.u.
The median fluorescence of `CCTAATGGGCCTCCTGGCCCATTAGG (5mC at 9)` is reported as 2470 a.u.
With `CACAACGGGCCTCCTGGCCCGTTGTG (5mC at 27)` the median fluorescence was 2410 a.u.
For `CACAATAGGCCTCCTGGCCTATTGTG`, the median fluorescence was 3750 a.u.
With `CACAATGTGCCTCCTGGCACATTGTG` the median fluorescence was 3150 a.u.

Further values, each from its own experiment
`SSRGYSAIW` — result for binding: “inactive” (HLA class I histocompatibility antigen, A alpha chain, allele A*80:01 (Homo sapiens, UniProt P04439); peptide-MHC binding; peptide; concentration not given).

A few entries again (sample 1):
With `GCACACA` the 7-mer Z-score was -0.00108.
`CUCGCUG` gave a 7-mer Z-score of -0.418.
With `GUGGUCG` the 7-mer Z-score was -0.204.
For `UGGAUUU`, the 7-mer Z-score was -0.184.
